Experimental data from different studies.
Each numbered part is a random draw from the data of one study; scales do not carry over between parts. Changes are numbered by the printed parent chain.

Set 1 — technique: Sort-seq; item: YFP reporter; sample: E. coli; notes: PhoQ-PhoP variant library; together with: 10 µM Mg2+; reference: high Mg2+ state; direction: higher = stronger signaling
Substance: PhoQ, residues 284 288 289 292 302 303 SSLVEF
target | fold induction
PhoP, residues 12 14 15 18 19 HHYTI (Escherichia coli, UniProt P23836) | 1.59
PhoP, residues 12 14 15 18 19 AYFRS (Escherichia coli, UniProt P23836) | 4.75
PhoP, residues 12 14 15 18 19 SFCSL (Escherichia coli, UniProt P23836) | 17.8

Set 2 — technique: RNA Bind-n-Seq; molecule type: RNA; sample: in vitro; tested at: 200 nM; notes: whole 134-nt RNA, ends assumed; together with: 150 mM LiCl; reference: input library; direction: higher = stronger binding; each molecule: 7-deaza-guanosine replaces G
Target: Fragile X messenger ribonucleoprotein 1, C-terminal low-complexity region (Fmr1, Mus musculus, UniProt P35922)
Shared flanks, not repeated: GGGAGUUCUACAGUCCGACGAUC … UGGAAUUCUCGGGUGUCAAGG
Sequence | log2 enrichment
UGGCAGGUGGAUUUUGUUUAUUUUUUUAGCUCAUUUCCAGGGGUGGGAAUUUUUUUUUAAUAUGUGUCAUGAAUAAAGUUGUUUUUGAAA | 0.402
CUCAAGUCCUGUGCUACACAUCGUAUGUACCGAAUCGGAAAGGUUUGGAAAGGAAAGUAUUAUGUUACGCCGUUCGGAUCUGCACUUCCA | -0.0132
UCAAGUCCUGUGCUACACAUCGUAUGUACCGAAUCGGGAAAGGGAGGGAAAGGGAAAGUAUUAUGUUACGCCGUUCGGAUCUGCACUUCC | -1.28
CCUGUGCUACACAUCGUAUGUACCGAAUCGGGGUUUUUGGGGAAAGGGGUUUUUUUGGGGAAAGUAUUAUGUUACGCCGUUCGGAUCUGC | -0.486
AAGUCCUGUGCUACACAUCGUAUGUACCGAAUCGGGAAAGGGAAAGGGGAAAGGGGAAAGUAUUAUGUUACGCCGUUCGGAUCUGCACUU | 0.274
CACAUACAACACGCACCCACACAGACACAGAGGGAAGGGGUUGGGAUGGGGACAGGGUGCACAGCAGGGCGGGGUAGGACCCCAGCCCCU | 0.0381
GUCCUGUGCUACACAUCGUAUGUACCGAAUCGGGGUUUUUUUGGGGUUUGGGGAGGGGAAAGUAUUAUGUUACGCCGUUCGGAUCUGCAC | -0.544
UUCCUCAAGUCCUGUGCUACACAUCGUAUGUACCGAAUCGGUGGUGGUGGAAAGUAUUAUGUUACGCCGUUCGGAUCUGCACUUCCAGCA | 0.345
CAAGUCCUGUGCUACACAUCGUAUGUACCGAAUCGGGAGGGAAAGGGAAAAAGGGAAAGUAUUAUGUUACGCCGUUCGGAUCUGCACUUC | 0.00984
CUGUGCUACACAUCGUAUGUACCGAAUCGGGUUUUUUUGGUUUUUUUGGGGUUUUUUUGGGGAAAGUAUUAUGUUACGCCGUUCGGAUCU | 1.05

Set 3 — technique: RNA Bind-n-Seq; molecule type: RNA; sample: in vitro; tested at: 365 nM; reference: no-protein control; direction: higher = stronger binding
Target: RNA binding protein fox-1 homolog 2, RRM domain, GST-SBP tag (RBFOX2, Homo sapiens, UniProt O43251-10, residues 100-194)
Notes: natural RNA segment, single round, ends assumed
Shared flanks, not repeated: GGGAGUUCUACAGUCCGACGAUC … UGGAAUUCUCGGGUGCCAA
Target sequence (chain): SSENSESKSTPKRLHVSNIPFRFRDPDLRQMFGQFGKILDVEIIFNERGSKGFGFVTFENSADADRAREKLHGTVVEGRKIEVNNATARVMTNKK
Sequence | RBNS enrichment (R)
GGGUGGAAAACUAGAGAGAUCACCCUCGACCUGCCUGGGUAGGGCUGGCAGUAGCUGUCCCAGCCUCAGCUCCUGGCCCGGUCCUGGGGUUCCCUCUUCACAGUCCCCGU | 0.282
CUUUGGCUUUGGGAAGGAAGAGAUGACCGUAAUCUUGCAACAAGAGUGCCCAACCAGGGACCACUGUCAUCAUAGUGGCUCUCAAUGUGCAUGUCACACCCCCCCUCAGU | 0.712
UAAGUUAAAUUUUAAACAAUUUGAUUGUUUGCCAUAUUGGGUGGGGUUACUCUUAGAAUCGCAUGCUGUAGAAAUGCUCUAAAGUGCAUAUAGGACUCAGUCCUUAGAUG | 1.64
UAAGGCUGGCGUGGCACGUUUGGGGACUCUGCCAGUCGGAGUUGCUGGGCACAUGCUGUGUACCACCGACUGCAGUCUGGCCCUGUUCUUAGUGGCAUCUGCCAAUGAGA | 0.479
CUGCGGCCCCAAAGCCCCUGGGCUUGGCUGUUUGAGGCAGAGGUGAUGGACUCCGGGGGCCUGACACUUGGGAUUUGGGAGGCUUCCUAGAGCGCUCAGCAGGUGAAGGC | 0.65
UAAAAUUAGACUUCCUUCCCUCACUAUAUAUCUUUAUGCAGUCAGAAUAUUUCCAACAGUGUUUUUUGCAAAUUAGAGCAGGACAAACUUUUAUGUUUACAGGGCACGUC | 0.675
CUCUUGCACUGUGUCCAUCACCACUUGGUGAGGACUCUUAAACUCUCUCCUCAUGUGCUUAUACCCUGUUCCAUGAAAAUAAAUGAGACCAUGAUUUUCCUUCAUGAUGU | 0.374
AUAGCUCUGUAAAACUUGUCCUGUGAGCGAGGCAGGUGCUAUCUGAGAGAGGGAUCUUGCAGCUGUCAUUUCUGGUCUUGUAGCCUUCAUCAGAGGCUGUUUUCCAUGAU | 0.518

Set 4 — target: CCNB2, cyclin fold, Cln2 fusion (human); technique: yeast growth competition, sequencing; sample: yeast; notes: strong parent motif; reference: not given; direction: higher = stronger binding
Starting sequence: E2F1 docking peptide (human); PPVKRRLDFETDH; partner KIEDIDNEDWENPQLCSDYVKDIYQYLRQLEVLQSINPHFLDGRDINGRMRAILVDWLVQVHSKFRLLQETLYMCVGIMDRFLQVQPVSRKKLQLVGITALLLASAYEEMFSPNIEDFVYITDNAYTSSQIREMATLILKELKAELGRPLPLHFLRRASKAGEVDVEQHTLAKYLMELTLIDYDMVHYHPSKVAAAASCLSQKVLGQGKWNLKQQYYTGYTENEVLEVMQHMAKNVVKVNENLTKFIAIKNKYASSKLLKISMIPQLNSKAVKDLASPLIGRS
Variant | normalised enrichment score
D8C | 3.42
R6W | 1.2
P2C | 3.44

Some of these lines once more (set 2):
Sequence | log2 enrichment
CACAUACAACACGCACCCACACAGACACAGAGGGAAGGGGUUGGGAUGGGGACAGGGUGCACAGCAGGGCGGGGUAGGACCCCAGCCCCU | 0.0381
GUCCUGUGCUACACAUCGUAUGUACCGAAUCGGGGUUUUUUUGGGGUUUGGGGAGGGGAAAGUAUUAUGUUACGCCGUUCGGAUCUGCAC | -0.544
UUCCUCAAGUCCUGUGCUACACAUCGUAUGUACCGAAUCGGUGGUGGUGGAAAGUAUUAUGUUACGCCGUUCGGAUCUGCACUUCCAGCA | 0.345
CAAGUCCUGUGCUACACAUCGUAUGUACCGAAUCGGGAGGGAAAGGGAAAAAGGGAAAGUAUUAUGUUACGCCGUUCGGAUCUGCACUUC | 0.00984
